Published values gathered from unrelated publications.
Each numbered part is a random draw from the data of one study; scales do not carry over between parts. Values joined by “and” are separate records of one study, mostly repeats; a detail may differ.

Study 1
Target: Replicase polyprotein 1ab, nsp13 helicase (rep, Severe acute respiratory syndrome coronavirus 2, UniProt P0DTD1)
Mode: inhibitor
Concentration: 20 µM
Measurement: inhibition
Structure (SMILES) = OC(c1ccccc1)(c1ccccc1)C12CC[N+](CCOCc3ccccc3)(CC1)CC2; value = 0.78%
Structure (SMILES) = NCCCCN; value = 1.21%
Structure (SMILES) = Cc1nc(N)sc1CCN; value = -1.76%
Structure (SMILES) = Nc1ncnc2c1c(COc1cccc(Cl)c1)nn2C1CCOCC1; value = 9.95%
Structure (SMILES) = O=C(O)c1cc(=O)c2c(OCC(O)COc3cccc4oc(C(=O)O)cc(=O)c34)cccc2o1; value = -5.61%
Structure (SMILES) = C[C@H]1C[C@@H]2[C@H]([C@@H](O)C[C@@]3(C)[C@H]2CC[C@]3(O)C(=O)COC(=O)CCC(=O)O)[C@@]2(C)C=CC(=O)C=C12; value = 1.78%
Structure (SMILES) = O=C(Nc1c(Cl)cncc1Cl)c1ccc(OC(F)F)c(OCC2CC2)c1; value = -0.65%
Structure (SMILES) = c1cc2c(cc1C1CCCCC1)c1c3n2CCNC3CCC1 (stereo not shown); value = 2.79%
Structure (SMILES) = C#CCN[C@@H]1CCc2ccccc21; value = 3.24%
Structure (SMILES) = C1CCC(C(CC2CCCCN2)C2CCCCC2)CC1 (stereo not shown); value = 4.25%
Structure (SMILES) = O=C(NC1CCNCC1)c1n[nH]cc1NC(=O)c1c(Cl)cccc1Cl; value = 7.36%
Structure (SMILES) = CCCc1c(OCCCCc2nnn[nH]2)ccc(C(C)=O)c1O; value = -0.22%
Structure (SMILES) = Cc1cc(N2CCOCC2)ccc1Nc1nc(NC2CCCCC2)c2[nH]cnc2n1; value = -0.38%
Structure (SMILES) = O=c1oc2cc(O)ccc2s1; value = 3.77%
Structure (SMILES) = NC(=O)c1ccc[n+]([C@@H]2O[C@H](COP(=O)([O-])OP(=O)(O)OC[C@H]3O[C@@H](n4cnc5c(N)ncnc54)[C@H](O)[C@@H]3O)[C@@H](O)[C@H]2O)c1; value = -0.72% and 7.75%
Structure (SMILES) = N[C@@H](CCC(=O)O)C(=O)O; value = 8.94%
Structure (SMILES) = Cc1ccc(CC2(O)CCN(CCOc3ccc(O)cc3)CC2)cc1; value = 4.9%
Structure (SMILES) = CCOc1cc(C(=O)N2CCC(N3CCN(C)CC3)CC2)ccc1Nc1ncc2c(n1)N(C1CCCC1)c1ccccc1C(=O)N2C; value = 5.66%
Structure (SMILES) = CCN(CCCCOC(=O)c1ccc(OC)c(OC)c1)C(C)Cc1ccc(OC)cc1 (stereo not shown); value = 2.18%
Structure (SMILES) = CN=C(NS(=O)(=O)c1ccc(Cl)cc1)N1C[C@H](c2ccccc2)C(c2ccc(Cl)cc2)=N1 (racemic); value = 5.65%
Structure (SMILES) = O=C(C[S+]([O-])Cc1ccco1)NC/C=C\COc1cc(CN2CCCCC2)ccn1 (stereo not shown); value = 4.56%
Structure (SMILES) = FC(F)(F)C(F)(F)C(F)(F)C(F)(F)C(F)(F)C(F)(F)C(F)(F)C(F)(F)Br; value = 4.11%
Structure (SMILES) = Cc1[nH]nc(C(F)(F)F)c1Cc1sc2c(c1C(=O)N1C[C@](C)(O)CO1)c(=O)n(C)c(=O)n2C(C)C; value = 3.06%

Study 2
Target: Histone acetyltransferase KAT6A, both winged helices, GST fusion (KAT6A, Homo sapiens, UniProt Q92794, residues 1-181)
Method: protein binding microarray
Molecule type: double-stranded DNA, one strand shown
Sample: in vitro
Concentration: not given
Notes: 8-mer, flanks averaged, mean of 2 arrays, mostly near background
Reference: not given
Direction: higher = stronger binding
Measurement: E-score
Target sequence (chain): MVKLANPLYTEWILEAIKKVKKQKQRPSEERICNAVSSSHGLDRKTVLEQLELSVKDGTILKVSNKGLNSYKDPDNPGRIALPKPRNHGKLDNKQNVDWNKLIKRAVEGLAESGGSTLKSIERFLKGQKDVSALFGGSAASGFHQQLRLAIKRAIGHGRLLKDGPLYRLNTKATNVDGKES
Strand = AGTGGCAA; value = -0.144
Strand = CCCAAGCA; value = -0.0567
Strand = AGAGGCGG; value = 0.156
Strand = ATACCCAC; value = -0.146
Strand = CTGTCTGA; value = -0.0371
Strand = ATTCCTCC; value = -0.105
Strand = CAGCTCAC; value = -0.135
Strand = AACGCTCA; value = 0.0723

Study 3
Target: Replicase polyprotein 1ab, main protease (rep, Severe acute respiratory syndrome coronavirus 2, UniProt P0DTD1)
Effect on: enzyme activity
Mode: inhibitor
Concentration: 20 µM
Notes: primary screen
Measurement: inhibition
SMILES = C=C(CC)C(=O)c1ccc(OCC(=O)O)c(Cl)c1Cl; value = 29.7%
SMILES = Cn1sc(=O)n(Cc2ccccc2)c1=O; value = 101%
SMILES = C=C1/C(=C\C=C2/CCC[C@]3(C)[C@@H]([C@H](C)CCCC(O)(C(F)(F)F)C(F)(F)F)CC[C@@H]23)C[C@@H](O)C[C@@H]1O; value = 26.6%
SMILES = CNS(=O)(=O)C[C@H]1CC[C@H](N(C)c2ncnc3[nH]ccc23)CC1; value = 54.1%

Study 4
Cell line: HEK-293T/ACE2
Concentration: 10 µM
Time: 16 h
Reference: vehicle
Measurement: viability
SMILES = CCc1nc(N)nc(N)c1-c1ccc(Cl)cc1; value = 96.7%
SMILES = N=C(N)NC(=O)Cc1c(Cl)cccc1Cl; value = 102%
SMILES = NC12CC3CC(CC(C3)C1)C2; value = 100%

Study 5
Target: Sox-I, HMG box (Salpingoeca helianthica)
Method: Spec-seq
Molecule type: double-stranded DNA, one strand shown
Sample: in vitro
Concentration: not given
Notes: whole probe, mean of replicates
Reference: not given
Direction: lower = stronger binding
Measurement: relative binding energy
Target sequence (chain): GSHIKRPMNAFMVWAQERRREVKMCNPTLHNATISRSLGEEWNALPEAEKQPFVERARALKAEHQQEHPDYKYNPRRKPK
Strand = GAGTCGTCTCGTCAGCACGCGAGTTCCGTAGAGCACTCAGGTC; value = 1.12 ln ratio
Strand = GAGTCGTCTCGTCAGCACCATAACACCGTAGAGCACTCAGGTC; value = 0.143 ln ratio
Strand = GAGTCGTCTCGTCAGCACCATGCGGCCGTAGAGCACTCAGGTC; value = 1.34 ln ratio

Study 6
Target: Hepatocyte nuclear factor 3-alpha (Foxa1, Mus musculus, UniProt P35582, residues 1-468, full length assumed)
Method: EMSA with sequencing
Molecule type: double-stranded DNA, one strand shown
Sample: in vitro
Concentration: 10 and 20 nM
Notes: whole designed probe, mean of two concentrations, ends assumed
Reference: negative control set to 0
Direction: higher = stronger binding
Measurement: normalised bound fraction
Shared flanks, not repeated: GTGAGCGGTGCCCATTGATGGGGAAC … TTTCACTGGGATCGTGGGGAC
Residues (chain): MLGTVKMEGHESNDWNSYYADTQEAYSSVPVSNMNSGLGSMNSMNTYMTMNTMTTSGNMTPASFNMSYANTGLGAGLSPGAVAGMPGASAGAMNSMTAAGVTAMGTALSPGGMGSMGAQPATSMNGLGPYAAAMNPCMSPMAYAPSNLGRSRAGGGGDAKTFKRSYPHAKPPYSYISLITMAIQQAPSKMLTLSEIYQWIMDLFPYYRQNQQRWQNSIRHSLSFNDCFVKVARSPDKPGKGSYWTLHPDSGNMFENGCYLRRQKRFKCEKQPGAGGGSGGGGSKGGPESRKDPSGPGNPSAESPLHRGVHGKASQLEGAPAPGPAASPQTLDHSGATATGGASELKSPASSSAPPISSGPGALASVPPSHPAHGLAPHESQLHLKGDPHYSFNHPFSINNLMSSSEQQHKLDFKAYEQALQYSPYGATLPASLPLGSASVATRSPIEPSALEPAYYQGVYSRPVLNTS
Strand = CACTCATAGTCTTGCTATCCTTCATATACAGAGATGACCCTCCCAAGCCTAAAATCAACAGGGGGAGGCATAGAGCTGTCCTTCTGGCTCTAATGTTTGCTTTACCATCATCCACGCCCATTCTTAGTCCAGCATGTGAGAGCCAGTGTGAAGTGAGCAGAATATGGCATAAGTATGGAGTCATACATCCTTA; value = 0.349 ratio
Strand = AAATAAGGCGCGCGAGAGAGGCCAACACGTCGCGGAGGGAGATGTTGTTATTTTTTGCTGTTGTGCGTCCCTGAGCTCACATCCACCTGCTGGGTAAACAACCGGGCTCCCAGAAAAAAAAAATCGCAATTGCCAAAGAATGGGGGGGGGGGTTGGGGGGAGGGATCCAGGGAGGGGGAAGTGAGGGGCGTCC; value = 0.403 ratio
Strand = CTTGATTTATGGCTAGAATATGACATACATGAGCATTTGCCTTTCCTAAGATAATTCACAAGCATCCCCCCAAAAAATATAGATAGGGATCAAAGTAAACAAACAAACAAACAAAAACAGAAGCAATTGAATTTGACCTTATAATGGTCATAAAGTGATGATGGACATGACCAAAGCCACAACATCAGTAGAA; value = 0.542 ratio
Strand = GTCTCTAAGAATCATAAGGGTGTGAAATAATTGATTTCCAGGTTTCACAAGCAATGAAGGACTTTCTGCTTAATACTGAGCTGTATTATTTTTGTTTACATTGTGCCCATCTATGATTTCATTTGGAAAAAGAAAGTTTAGCTATCAAAATATTTCAAAACTAAACTCTAAAAAACCTATCTAAGGTGTCTTA; value = 0.437 ratio
Strand = ATCTTCCCCCTCTTCCTTGCCCCACCAGCTCACCTTCCCGGGTTATTTGCACAAAGGAAAATAAATAAAGCCGGCATTCGTTAACGCAGTTCACGCGCATACTGCTGTTTGCTCTGCATGAATCATGGTCCTTACGCGAGGCGTGGCTCCGGGAGAGCAAAGCACCGTGTCAGGCGCATGATCCGGGCTCGCC; value = 0.38 ratio
